Measured values from different studies.
Protocols differ between the studies behind these lines.
Sequence of UniProt P23458 (whole entry, looked up): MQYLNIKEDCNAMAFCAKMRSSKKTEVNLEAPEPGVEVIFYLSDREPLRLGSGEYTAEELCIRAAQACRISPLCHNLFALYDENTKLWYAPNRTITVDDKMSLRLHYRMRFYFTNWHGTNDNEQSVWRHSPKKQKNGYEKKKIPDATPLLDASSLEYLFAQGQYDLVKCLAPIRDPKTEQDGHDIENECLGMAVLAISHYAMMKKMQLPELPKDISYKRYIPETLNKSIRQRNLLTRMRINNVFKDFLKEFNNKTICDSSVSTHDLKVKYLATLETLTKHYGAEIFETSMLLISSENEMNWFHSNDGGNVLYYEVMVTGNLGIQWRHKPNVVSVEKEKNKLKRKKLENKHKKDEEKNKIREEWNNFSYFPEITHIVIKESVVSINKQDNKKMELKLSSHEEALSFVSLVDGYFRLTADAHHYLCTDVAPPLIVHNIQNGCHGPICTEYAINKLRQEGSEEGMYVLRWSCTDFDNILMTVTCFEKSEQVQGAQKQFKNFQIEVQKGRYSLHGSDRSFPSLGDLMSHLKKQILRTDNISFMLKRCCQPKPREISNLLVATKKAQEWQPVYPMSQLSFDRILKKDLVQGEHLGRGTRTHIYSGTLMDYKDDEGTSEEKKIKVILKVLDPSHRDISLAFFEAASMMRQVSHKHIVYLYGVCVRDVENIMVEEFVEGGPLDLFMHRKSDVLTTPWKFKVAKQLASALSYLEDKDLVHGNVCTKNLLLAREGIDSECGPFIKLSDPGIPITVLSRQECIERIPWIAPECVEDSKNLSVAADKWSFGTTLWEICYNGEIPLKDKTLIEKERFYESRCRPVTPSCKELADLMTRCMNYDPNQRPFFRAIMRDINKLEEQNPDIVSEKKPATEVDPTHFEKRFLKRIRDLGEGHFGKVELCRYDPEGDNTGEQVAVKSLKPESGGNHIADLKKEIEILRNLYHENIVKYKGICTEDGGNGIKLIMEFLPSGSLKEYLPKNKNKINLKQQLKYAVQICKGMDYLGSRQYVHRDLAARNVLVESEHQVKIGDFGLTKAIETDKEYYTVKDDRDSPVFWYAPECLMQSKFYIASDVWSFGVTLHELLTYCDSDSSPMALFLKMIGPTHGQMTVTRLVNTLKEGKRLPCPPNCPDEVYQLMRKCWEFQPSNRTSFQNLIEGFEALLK
Sequence of UniProt Q9UK32 (whole entry, looked up): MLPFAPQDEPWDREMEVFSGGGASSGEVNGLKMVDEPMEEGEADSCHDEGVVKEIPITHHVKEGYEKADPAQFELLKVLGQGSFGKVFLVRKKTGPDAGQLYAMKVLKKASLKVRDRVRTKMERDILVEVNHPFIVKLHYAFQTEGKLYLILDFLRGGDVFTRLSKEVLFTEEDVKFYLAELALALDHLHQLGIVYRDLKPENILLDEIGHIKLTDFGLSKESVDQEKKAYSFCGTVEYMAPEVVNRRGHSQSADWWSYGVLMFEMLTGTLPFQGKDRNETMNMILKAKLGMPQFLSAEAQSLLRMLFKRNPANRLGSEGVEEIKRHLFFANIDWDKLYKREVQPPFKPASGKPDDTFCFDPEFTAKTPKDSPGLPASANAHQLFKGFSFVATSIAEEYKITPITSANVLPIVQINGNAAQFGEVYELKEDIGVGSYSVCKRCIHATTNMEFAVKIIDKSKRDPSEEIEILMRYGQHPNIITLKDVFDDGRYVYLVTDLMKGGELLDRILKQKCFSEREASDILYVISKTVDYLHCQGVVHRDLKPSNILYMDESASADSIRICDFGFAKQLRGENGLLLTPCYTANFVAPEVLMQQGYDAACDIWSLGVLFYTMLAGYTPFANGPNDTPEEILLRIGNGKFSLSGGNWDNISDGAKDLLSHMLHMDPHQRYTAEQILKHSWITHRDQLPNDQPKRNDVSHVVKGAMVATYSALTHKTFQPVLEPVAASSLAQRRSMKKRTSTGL
Sequence of UniProt Q16539 (whole entry, looked up): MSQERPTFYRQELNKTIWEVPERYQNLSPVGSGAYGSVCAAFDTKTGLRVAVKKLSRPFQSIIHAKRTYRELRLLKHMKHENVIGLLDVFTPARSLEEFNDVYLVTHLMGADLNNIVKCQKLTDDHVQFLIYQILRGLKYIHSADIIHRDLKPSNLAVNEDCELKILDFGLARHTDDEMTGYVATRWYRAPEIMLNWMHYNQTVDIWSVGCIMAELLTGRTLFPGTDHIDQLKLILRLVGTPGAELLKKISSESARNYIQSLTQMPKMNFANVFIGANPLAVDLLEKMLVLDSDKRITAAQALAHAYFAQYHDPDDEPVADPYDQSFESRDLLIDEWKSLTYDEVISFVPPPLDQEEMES
Sequence of UniProt Q7Z601 (whole entry, looked up): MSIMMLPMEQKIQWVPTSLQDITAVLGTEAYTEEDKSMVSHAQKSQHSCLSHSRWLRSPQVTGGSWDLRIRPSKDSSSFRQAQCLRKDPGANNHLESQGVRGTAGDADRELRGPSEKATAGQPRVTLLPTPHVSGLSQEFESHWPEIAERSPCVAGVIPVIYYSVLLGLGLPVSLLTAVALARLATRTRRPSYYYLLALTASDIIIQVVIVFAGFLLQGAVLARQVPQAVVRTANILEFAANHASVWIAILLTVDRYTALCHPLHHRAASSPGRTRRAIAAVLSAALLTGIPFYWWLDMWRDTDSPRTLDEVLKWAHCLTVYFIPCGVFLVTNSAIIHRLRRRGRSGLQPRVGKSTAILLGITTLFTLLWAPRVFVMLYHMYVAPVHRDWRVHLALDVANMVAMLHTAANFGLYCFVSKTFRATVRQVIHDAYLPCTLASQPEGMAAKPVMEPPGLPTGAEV
Sequence of UniProt P11150 (whole entry, looked up): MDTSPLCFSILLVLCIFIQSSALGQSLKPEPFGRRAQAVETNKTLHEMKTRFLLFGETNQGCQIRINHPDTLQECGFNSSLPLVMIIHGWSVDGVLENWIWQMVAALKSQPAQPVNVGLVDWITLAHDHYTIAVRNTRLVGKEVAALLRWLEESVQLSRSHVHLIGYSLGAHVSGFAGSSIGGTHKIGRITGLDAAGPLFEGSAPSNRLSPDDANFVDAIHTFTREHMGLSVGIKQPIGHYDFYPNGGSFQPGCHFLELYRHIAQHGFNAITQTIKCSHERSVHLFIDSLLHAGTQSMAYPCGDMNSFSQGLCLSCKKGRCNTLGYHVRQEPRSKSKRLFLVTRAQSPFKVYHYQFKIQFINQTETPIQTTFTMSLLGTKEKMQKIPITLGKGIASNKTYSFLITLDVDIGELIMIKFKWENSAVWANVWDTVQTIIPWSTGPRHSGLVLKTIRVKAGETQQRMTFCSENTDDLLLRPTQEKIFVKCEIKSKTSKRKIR

Compound = COc1ccccc1C(=O)NC1CCCN(Cc2cccc(-c3ccc(C)c(Cl)c3)c2)C1 (stereo not shown); tested on = Vero-E6; assay = CellTiter-Glo ATP; setting = concentration not given, 72 h, retest 8-point duplicates; scale = relative to: DMSO 0%, hyamine -100%, more negative, more toxic; endpoint = cytotoxicity efficacy; result = -32.3%
Compound = O=C(c1ccc(Cl)cc1)N1CCN2C(=O)N(OC(=O)N3CCOc4ccccc43)C(=O)C2C1 (stereo not shown); tested on = Hepatic triacylglycerol lipase (Homo sapiens, UniProt P11150); assay = enzyme activity, inhibitor, MS-based ABPP; test system = SW-620 conditioned medium; setting = 10 µM, 1 h, 37 °C; scale = relative to: compound over DMSO, lower = stronger inhibition; endpoint = median ratio; result = 0.95
Compound = CC1CCCN(CCCNC(=O)c2cc(Sc3ccc(F)cc3)nc3ccccc23)C1 (stereo not shown); tested on = Vero-E6; assay = CellTiter-Glo ATP; setting = concentration not given, 72 h, retest 8-point duplicates; scale = relative to: DMSO 0%, hyamine -100%, more negative, more toxic; endpoint = cytotoxicity efficacy; result = 0%
Compound = CN[C@@]1(c2ccccc2Cl)CCCCC1=O; tested on = muscle nicotinic acetylcholine receptor; assay = radioligand binding, antagonist, radioligand displacement; setting = 30 µM; endpoint = inhibition; result = -14%
Compound = Cc1ccc(CSc2ncnc3c2ccn3[C@@H]2O[C@H](CO)[C@@H](O)[C@H]2O)cc1; tested on = Toxoplasma gondii; assay = [3H]uracil incorporation; test system = human fibroblasts, adenosine kinase deficient; setting = 5 µM; endpoint = survival; result = 100%
Compound = C[C@H]1CN(c2n[nH]c3nc(N[C@H]4CC[C@H](NS(=O)(=O)CCC(F)(F)F)CC4)ncc23)CCO1; tested on = MAPK14 (Homo sapiens, UniProt Q16539); assay = Kinobeads competition; test system = HEK293, K562, placenta lysate; setting = 20 µM, unit not given; scale = relative to: vehicle; endpoint = remaining binding; result = 0.22
Compound = Oc1ccc2c3c1O[C@H]1[C@@H](O)CC[C@@]4(O)[C@@H](C2)N(CC2CCC2)CC[C@]314; tested on = Probable G-protein coupled receptor 142 (Homo sapiens, UniProt Q7Z601); assay = β-arrestin recruitment, TANGO luminescence, measured: GPR142; setting = concentration not given; scale = relative to: basal luminescence; endpoint = log2 fold change; result = -0.183
Compound = OC[C@H]1O[C@@H](n2ccc3c(SCc4ccc(Cl)c(Cl)c4)ncnc32)[C@H](O)[C@@H]1O; tested on = Toxoplasma gondii; assay = [3H]uracil incorporation; test system = human fibroblasts, adenosine kinase deficient; setting = 25 µM; endpoint = survival; result = 100%
Compound = COc1ccc(N2C(=O)N(c3c(C)cccc3Cl)Cc3cnc(Nc4ccc(C5CCN(C)CC5)cc4OC)nc32)nc1; tested on = RPS6KA6 (Homo sapiens, UniProt Q9UK32); assay = kinase activity, inhibitor; setting = 0.5 µM, RSK4; endpoint = inhibition; result = 9%
Compound = [2H]c1c([2H])c([C@]2([2H])CCCN2C(=O)C(C)(C)Oc2ccc3cn[nH]c3c2)c([2H])c([2H])c1C([2H])([2H])[2H]; tested on = Tyrosine-protein kinase JAK1, JH2 pseudokinase domain (JAK1, Homo sapiens, UniProt P23458); assay = KINOMEscan; setting = 1 µM; scale = relative to: DMSO control; endpoint = remaining binding; result = 86%

Repeated from above:
Compound = CC1CCCN(CCCNC(=O)c2cc(Sc3ccc(F)cc3)nc3ccccc23)C1 (stereo not shown); tested on = Vero-E6; assay = CellTiter-Glo ATP; setting = concentration not given, 72 h, retest 8-point duplicates; scale = relative to: DMSO 0%, hyamine -100%, more negative, more toxic; endpoint = cytotoxicity efficacy; result = 0%
